Measured values gathered from unrelated publications.
± marks the error that the study gave.

Cc1cc(F)ccc1-c1cc(N2C[C@H]3COC(O)CN3C[C@H]2CO)ncc1N(C)C(=O)C(C)(C)c1cc(C(F)(F)F)cc(C(F)(F)F)c1 (stereo partly drawn)  unbound intrinsic clearance (pooled human liver microsomes; pH 7.4, substrate depletion): 596 µL/min/mg
CCC1(CC)CC(=O)N(C2CCOc3ccc(C(=O)NC4CC(C)(C)Oc5ccccc54)cc32)C(=N)N1 (stereo not drawn)  unbound fraction (dog plasma): 0.007
COc1ccc2c(c1)CN(C(=O)CCN1CCC(Cc3ccccc3)CC1)CC[S@@+]2[O-]  unbound plasma concentration (healthy male volunteers; intravenous, 0.2 mg/kg): 150 nM
O=C(N[C@@H](Cc1ccc(OCCCCC2CCNCC2)cc1)C(=O)O)c1nc2ccccc2o1.O=C(O)C(F)(F)F  unbound fraction in plasma (rapid equilibrium dialysis; human platelet-free plasma; 2 µM, 24 h, 37 °C): 0.95%
Cc1[nH]nc2c1N=C(c1ccccc1Cl)c1cnc(N3CCOCC3)cc1N2  unbound fraction (mouse plasma): 0.0367
COc1ccc2c(c1)CN(C(=O)CCN1CCC(Cc3ccccc3)CC1)CCS2  unbound plasma concentration (paroxysmal atrial fibrillation patients, plasma; oral, 540 mg, 10 min): 3 ± 2 nM
CN(C(=O)C(C)(C)c1cc(C(F)(F)F)cc(C(F)(F)F)c1)c1cnc(N2C[C@H]3COCCN3C[C@H]2CO)cc1-c1ccc(F)cc1CO  unbound intrinsic clearance (pooled human liver microsomes; pH 7.4, substrate depletion): 2070 µL/min/mg
C=CC(=O)Nc1cc(Nc2ncnc(Nc3cc(Cl)c(F)cc3C(C)(C)O)n2)c(OC)cc1N1CCC(N(C)C)C1 (stereo not drawn)  unbound fraction (human plasma): 19.6%
COC1C(c2ccc(Cl)c(Cc3ccc(OC4CCOC4)cc3)c2)OC(CO)C(O)C1O (stereo not drawn)  unbound fraction (dog plasma; 1 µM, 5 h): 0.042

Excerpt of the above:
COc1ccc2c(c1)CN(C(=O)CCN1CCC(Cc3ccccc3)CC1)CCS2  unbound plasma concentration (paroxysmal atrial fibrillation patients, plasma; oral, 540 mg, 10 min): 3 ± 2 nM
